# Measured values of several laboratories.
# Each line is one published result; not all experiments were run side by side. ± gives the spread as reported.
SMILES,test,test system,conditions,Cmax
O=C(c1cccnc1-c1ccncc1)N1CCC(O)(Cc2ccccc2)CC1,,"healthy Japanese adults, plasma","oral, 300 mg twice daily, day 21",2060 ng/mL
CCc1nc2c(C)cc(N3CCN(CC(=O)N4CC(O)C4)CC3)cn2c1N(C)c1nc(-c2ccc(F)cc2)c(C#N)s1,,"healthy volunteers, plasma","oral, 600 mg once daily multiple doses",10600 ng/mL
COc1c(O)cc(C(=O)O)cc1O,,"broiler chickens, serum","oral, in feed, 2000 mg/kg feed, 24 h, corn diet, no tannins",100 ± 40 nM
C[C@@H](N)C1CCN(S(=O)(=O)c2cccc3cnccc23)CC1,,"healthy volunteers, plasma","oral, 150 mg, fed, single dose",18.5 ng/mL
CCc1nc(C(N)=O)c(Nc2ccc(N3CCC(N4CCN(C)CC4)CC3)c(OC)c2)nc1NC1CCOCC1,,"patients, plasma","oral, 40 mg once daily, cycle 1 day 15, median",106 ng/mL
N[C@@H]1c2ccccc2OC12CCN(c1cnc3c(N4CCCc5ncccc54)n[nH]c3n1)CC2,,"advanced metastatic solid tumour patients, plasma","oral, 40 mg once daily, cycle 1 day 15, geometric mean",624 ng/mL
COc1nnc2ccc(N3CCC(c4ccc(OCCN5CCN(C)C(=O)[C@H]5C)cc4)CC3)nn12,,"patients, plasma","oral, 15 mg twice daily, multiple dose, monotherapy",106 nM
C[C@@](Cc1ccc(O)c(O)c1)(NN)C(=O)O,,"Parkinson's disease patients, plasma","oral, high levodopa Cmax subgroup (≥9 µmol/L), median",310 nM
C[C@H](NC(=O)/C(C#N)=C/c1cccc(Br)n1)c1ccccc1,LC-MS/MS,"patients, plasma","oral, 4 mg/kg, cycle 1 day 8",23.6 ng/mL
CCCCCCCOc1ccc(CCC(N)(CO)CO)cc1C(F)(F)F.Cl,,"healthy men, plasma","oral, 0.25 mg, day 21",1.87 ng/mL
OC[C@H]1O[C@@H](c2ccc(F)c(Cc3cc4ccccc4s3)c2)[C@H](O)[C@@H](O)[C@@H]1O,,"Japanese type 2 diabetes patients, plasma","oral, 25 mg/day, day 14",694 ± 174 ng/mL

# Repeated from above:
SMILES,test,test system,conditions,Cmax
COc1nnc2ccc(N3CCC(c4ccc(OCCN5CCN(C)C(=O)[C@H]5C)cc4)CC3)nn12,,"patients, plasma","oral, 15 mg twice daily, multiple dose, monotherapy",106 nM
O=C(c1cccnc1-c1ccncc1)N1CCC(O)(Cc2ccccc2)CC1,,"healthy Japanese adults, plasma","oral, 300 mg twice daily, day 21",2060 ng/mL
